Results gathered from unrelated publications.
Compare with care: the assays were run in different laboratories.
FLT3 D835H: Receptor-type tyrosine-protein kinase FLT3 (FLT3, Homo sapiens, UniProt P36888, D835H)
FLT3: Receptor-type tyrosine-protein kinase FLT3 (FLT3, Homo sapiens, UniProt P36888)

CCN1CCN(Cc2ccc(C(=O)Nc3ccc(C)c(NCc4cnc5[nH]ccc5c4OC)c3)cc2C(F)(F)F)CC1  remaining binding (Receptor-type tyrosine-protein kinase FLT3, autoinhibited (FLT3, Homo sapiens, UniProt P36888); binding, competition with immobilised ligand; 1 µM): 76%
CNC(=O)C1CCN(c2cc(C)c(F)cc2NC(=O)c2ccc(-c3cc(O)ccc3C)c(C)c2)CC1  remaining binding (FLT3 D835H; binding, competition with immobilised ligand; 1 µM): 100%
CNC1C[S+]2CC[S+]3CC[S+](C1)[Ru-4]321([N]=C=S)[n]2c3ccc(OC)cc3c3c4c(c5cc(F)c[n+]1c5c32)C(=O)NC4=O (stereo not drawn)  remaining binding (FLT3 D835H; KinomeScan; 0.1 µM; baseline: untreated): 30%
Cc1cnc2nc1Nc1cccc(c1)COC/C=C/COCc1cc(ccc1OCCN1CCOCC1)N2  remaining binding (FLT3; binding; 0.1 µM): 0.75%
Nc1ncc2c(n1)-c1c([nH]c3ccc(C4=CCOCC4)cc13)CCC2  remaining binding (Receptor-type tyrosine-protein kinase FLT3 (FLT3, Homo sapiens, UniProt P36888, D835V); binding, competition with immobilised ligand; 1 µM): 80%
Cc1ccc(-c2c(/C=C(\C#N)C(=O)NC(C)C)n(CCCO)c3ncnc(N)c23)cc1  remaining binding (FLT3; cell-free assay, competition with immobilised ligand; 1 µM): 52%
C=CC(=O)N1CCc2ccc(-n3c(=O)ccc4cnc5ccc(-c6cnn(C)c6)cc5c43)cc21  remaining binding (Receptor-type tyrosine-protein kinase FLT3 (FLT3, Homo sapiens, UniProt P36888, R834Q); KINOMEscan; 1 µM; baseline: DMSO control): 99%
CC(C)=CC1OC(C)(C)C2C=C3C(=O)C(Cl)=CC(O)C3C3C(O)C4OC4C(=O)C132 (stereo not drawn)  remaining binding (Receptor-type tyrosine-protein kinase FLT3 (FLT3, Homo sapiens, UniProt P36888, F691L/ITD); cell-free assay, competition with immobilised ligand; 10 µM): 56%
COc1c(Cl)cccc1Nc1c(-c2ccncc2C#C[C@@]2(C)CCCN2C(=O)/C=C/CN(C)C)[nH]c2c1C(=O)NCC2  remaining binding (FLT3; binding, competition with immobilised ligand; 3 µM): 100%
